Published values of several laboratories.
± gives the spread as reported.
Organism: Escherichia coli

CO/N=C(\C(=O)N[C@@H]1C(=O)N2C(C(=O)O)=C(COC(C)=O)CS[C@H]12)c1csc(N)n1  MIC (AmpC-overproducing clinical isolate; alone without inhibitor, first isolate): 16 µg/mL
N=C(N)NCCC[C@H](NC(=O)[C@H](Cc1c[nH]cn1)NC(=O)[C@@H]1CCCN1C(=O)[C@H](CS)NC(=O)[C@@H](N)Cc1ccc(O)cc1)C(=O)N[C@@H](CS)C(=O)O  MIC (broth microdilution; MTCC 443; 37 °C): 45 µg/mL
CC[C@H](C)[C@H](NC(=O)[C@H](C)NC(=O)[C@H](CCCCN)NC(=O)[C@H](CC(C)C)NC(=O)[C@H](C)NC(=O)[C@@H](NC(=O)[C@H](Cc1c[nH]cn1)NC(=O)[C@H](CC(C)C)NC(=O)[C@@H](NC(=O)[C@@H](NC(=O)[C@H](CCCCN)NC(=O)[C@H](CCCCN)NC(=O)[C@H](C)NC(=O)[C@H](CO)NC(=O)[C@H](CCCCN)NC(=O)[C@H](Cc1ccccc1)NC(=O)[C@@H](NC(=O)[C@H](CCCCN)NC(=O)[C@H](CC(C)C)NC(=O)[C@H](Cc1ccccc1)NC(=O)[C@H](CO)NC(=O)[C@H](CCCCN)NC(=O)[C@H](Cc1c[nH]c2ccccc12)NC(=O)[C@H](CCCCN)NC(C)=O)[C@@H](C)O)[C@@H](C)O)C(C)C)[C@@H](C)O)C(=O)N[C@@H](CO)C(=O)N[C@@H](CO)C(N)=O  MIC (broth dilution; ATCC 25922, Mueller-Hinton broth; 24 h, 37 °C): 16 µg/mL
CSCC[C@H](NC(=O)[C@H](CC(N)=O)NC(=O)[C@@H]1CCCN1C(=O)[C@@H]1CCCN1C(=O)[C@H](CCCNC(=N)N)NC(=O)[C@@H]1CCCN1C(=O)[C@H](CCCNC(=N)N)NC(=O)[C@@H]1CCCN1C(=O)[C@H](CCCNC(=N)N)NC(=O)[C@H](Cc1ccc(O)cc1)NC(=O)[C@H](CC(=O)O)NC(=O)[C@@H]1CCCN1C(=O)[C@H](CCCCN)NC(=O)[C@H](CC(=O)O)NC(=O)[C@@H](N)C(C)C)C(=O)O  MIC (broth microdilution; K12; 37 °C): > 100 µM
CC(C)C[C@H](NC(=O)[C@H](CCCNC(=N)N)NC(=O)[C@@H]1CCCN1C(=O)[C@H](CCCNC(=N)N)NC(=O)[C@@H]1CCCN1C(=O)[C@@H]1CCCN1C(=O)[C@H](CCCNC(=N)N)NC(=O)[C@@H]1CCCN1C(=O)[C@H](CCC(N)=O)NC(=O)[C@@H]1CCCN1C(=O)[C@H](CCCNC(=N)N)NC(=O)[C@H](Cc1ccc(O)cc1)NC(=O)[C@@H](NC(=O)[C@@H]1CCCN1C(=O)[C@H](CCCCN)NC(=O)[C@H](CC(N)=O)NC(=O)[C@H](CC(N)=O)NC(=O)CN)C(C)C)C(=O)O  MIC (JW0368 ΔsbmA; 18 h, 37 °C, 12.5% Mueller-Hinton broth): 0.133 ± 0.061 µM
CC[C@H](C)[C@H](NC(=O)[C@H](CC(=O)O)NC(=O)[C@H](Cc1ccccc1)NC(=O)[C@H](CC(C)C)NC(=O)CN)C(=O)N[C@H](C(=O)N[C@@H](CCCCN)C(=O)N[C@@H](CCCCN)C(=O)N[C@H](C(=O)N[C@H](C(=O)NCC(=O)N[C@@H](CC(C)C)C(=O)N[C@@H](CC(C)C)C(=O)N[C@@H](CCCCN)C(N)=O)C(C)C)C(C)C)C(C)C  MIC (ATCC 25922, CAMHB; 18 h, 37 °C): > 21 µM
CC[C@H](C)[C@H](NC(=O)[C@H](Cc1c[nH]cn1)NC(=O)[C@H](Cc1c[nH]cn1)NC(=O)[C@H](Cc1ccccc1)NC(=O)[C@@H](N)Cc1ccccc1)C(=O)N[C@@H](Cc1ccccc1)C(=O)N[C@@H](CCCNC(=N)N)C(=O)NCC(=O)N[C@@H](C)C(=O)N[C@H](C(=O)N[C@@H](Cc1c[nH]cn1)C(=O)N[C@H](C(=O)NCC(=O)N[C@@H](CCCCN)C(=O)N[C@H](C(=O)N[C@H](C(=O)N[C@@H](Cc1c[nH]cn1)C(=O)N[C@@H](CCCNC(=N)N)C(=O)N[C@@H](CC(C)C)C(=O)N[C@H](C(=O)N[C@H](C(=O)NCC(N)=O)[C@@H](C)O)C(C)C)[C@@H](C)CC)[C@@H](C)O)C(C)C)C(C)C  MIC (broth microdilution; ATCC 25922; 18 h, 37 °C): 3.1 µg/mL
CC[C@H](C)[C@H](NC(=O)[C@H](C)NC(=O)CNC(=O)[C@H](C)NC(=O)[C@H](CCCCN)NC(=O)[C@H](CO)NC(=O)[C@H](C)NC(=O)[C@H](CCSC)NC(=O)CN)C(=O)N[C@@H](C)C(=O)NCC(=O)N[C@@H](CCCCN)C(=O)N[C@H](C(=O)N[C@@H](C)C(=O)N[C@@H](CCCCN)C(=O)N[C@H](C(=O)N[C@@H](C)C(=O)N[C@@H](CC(C)C)C(=O)N[C@@H](CCCCN)C(=O)N[C@@H](C)C(=O)N[C@@H](CC(C)C)C(N)=O)C(C)C)[C@@H](C)CC  MIC (broth microdilution; K12; 37 °C): 25 µM
CC[C@H](C)[C@H](NC(=O)[C@H](Cc1ccc(O)cc1)NC(=O)[C@@H](NC(=O)[C@@H]1CCCN1C(=O)[C@H](CCCNC(=N)N)NC(=O)[C@H](CC(N)=O)NC(=O)[C@H](CC(N)=O)NC(=O)CN)C(C)C)C(=O)N1CCC[C@H]1C(=O)N[C@@H](CCC(N)=O)C(=O)N1CCC[C@H]1C(=O)N[C@@H](CCCNC(=N)N)C(=O)N1CCC[C@H]1C(=O)N1CCC[C@H]1C(=O)N[C@@H](Cc1c[nH]cn1)C(=O)N1CCC[C@H]1C(=O)N[C@@H](CCCNC(=N)N)C(=O)N[C@@H](CC(C)C)C(=O)O  MIC (broth microdilution; BW25113 parental, Mueller-Hinton broth; 18 h, 37 °C): 0.024 ± 0.006 µM
CC[C@H](C)[C@H](N)C(=O)N[C@@H](CC(N)=O)C(=O)N[C@@H](CC(C)C)C(=O)N[C@@H](CCCCN)C(=O)N[C@@H](C)C(=O)N[C@H](C(=O)N[C@@H](C)C(=O)N[C@@H](C)C(=O)N[C@@H](CC(C)C)C(=O)N[C@@H](C)C(=O)N[C@@H](CCCCN)C(=O)N[C@@H](CCCCN)C(=O)N[C@@H](CC(C)C)C(=O)N[C@@H](CC(C)C)C(=O)O)[C@@H](C)CC  MIC (broth microdilution; K12; 37 °C): 25 µM
CC[C@H](C)[C@H](NC(=O)[C@@H]1CCCN1C(=O)[C@H](CCCCN)NC(=O)[C@@H]1CCCN1C(=O)[C@@H]1CCCN1C(=O)[C@@H](NC(=O)[C@@H]1CCCN1C(=O)[C@H](CCCNC(=N)N)NC(=O)[C@@H]1CCCN1C(=O)[C@H](CCCNC(=N)N)NC(=O)[C@H](Cc1ccc(O)cc1)NC(=O)[C@H](CO)NC(=O)CNC(=O)[C@H](CCCCN)NC(=O)[C@H](CC(=O)O)NC(=O)[C@@H](N)C(C)C)[C@@H](C)O)C(=O)N[C@@H](Cc1ccc(O)cc1)C(=O)N[C@@H](CC(N)=O)C(=O)N[C@@H](CCCNC(=N)N)C(=O)N[C@@H](CC(N)=O)C(=O)O  MIC (JW0013; 18 h, 37 °C, 12.5% Mueller-Hinton broth): 0.037 ± 0.008 µM
CC[C@H](C)[C@H](NC(=O)[C@H](CO)NC(=O)[C@@H](NC(=O)[C@H](C)NC(=O)[C@H](CCC(N)=O)NC(=O)CNC(=O)[C@@H](NC(=O)[C@@H](NC(=O)CNC(=O)[C@@H](NC(=O)[C@H](C)NC(=O)[C@@H]1CCCN1C(=O)CNC(=O)[C@H](C)NC(=O)[C@H](CCCCN)NC(=O)[C@@H](NC(=O)[C@@H](NC(=O)CNC(=O)[C@H](CC(=O)O)NC(=O)[C@H](CCCNC(=N)N)NC(=O)[C@@H](NC(=O)[C@H](CCCCN)NC(=O)[C@H](CCCNC(=N)N)NC(=O)CNC(=O)[C@@H](NC(=O)[C@H](CCCCN)NC(=O)[C@H](CCC(=O)O)NC(=O)[C@@H](NC(=O)[C@H](CCCCN)NC(=O)[C@H](CCCCN)NC(=O)[C@H](CC(C)C)NC(=O)[C@H](Cc1ccccc1)NC(=O)[C@H](CCCCN)NC(=O)[C@H](Cc1c[nH]c2ccccc12)NC(=O)[C@@H](N)CCCNC(=N)N)[C@@H](C)CC)C(C)C)C(C)C)C(C)C)[C@@H](C)CC)C(C)C)C(C)C)C(C)C)[C@@H](C)O)C(=O)N[C@@H](Cc1ccc(O)cc1)C(=O)N[C@@H](CCCCN)C(N)=O  MIC (broth microdilution; DH5α; 20 h, 37 °C): 2.1 ± 0.7 µg/mL
CC[C@H](C)[C@H](NC(=O)CN)C(=O)N[C@@H](CCCCN)C(=O)N[C@H](C(=O)N[C@@H](CCCNC(=N)N)C(=O)N[C@@H](CCCCN)C(=O)N[C@@H](CC(C)C)C(=O)N[C@@H](Cc1ccccc1)C(=O)N[C@@H](CCCCN)C(=O)N[C@@H](CCCCN)C(=O)N[C@@H](CC(C)C)C(=O)N[C@@H](CC(C)C)C(=O)N[C@@H](CCCNC(=N)N)C(N)=O)[C@@H](C)CC  MIC (ATCC 25922; 1 h, 37 °C, non-dividing cells in PBS): 12.5 to 25 µg/mL
CC[C@H](C)[C@H](NC(=O)[C@H](CCCNC(=N)N)NC(=O)[C@@H](N)CCCNC(=N)N)C(=O)N[C@@H](CCCCN)C(=O)N[C@@H](CCCCN)C(=O)N[C@@H](CCCNC(=N)N)C(=O)N1CCC[C@H]1C(=O)N1CCC[C@H]1C(=O)N[C@@H](CCCNC(=N)N)C(=O)N[C@@H](CC(C)C)C(=O)N1CCC[C@H]1C(=O)N[C@@H](CCCNC(=N)N)C(=O)N1CCC[C@H]1C(=O)N[C@@H](CCCNC(=N)N)C(=O)N1CCC[C@H]1C(=O)N[C@@H](CCCNC(=N)N)C(=O)O  MIC (JW0368 ΔsbmA; 18 h, 37 °C, 12.5% Mueller-Hinton broth): 0.06 ± 0.014 µM
